Published values of several laboratories.
Every numbered part comes from another study and shows a few of its results, in no order.

Set 1 — technique: RNA Bind-n-Seq; molecule type: RNA; medium: in vitro; tested at: 365 nM; baseline: no-protein control; direction: higher = stronger binding
Target: RNA binding protein fox-1 homolog 2, RRM domain, GST-SBP tag (RBFOX2, Homo sapiens, UniProt O43251-10, residues 100-194)
Setting: natural RNA segment, single round, ends assumed
Shared flanks, not repeated: GGGAGUUCUACAGUCCGACGAUC … UGGAAUUCUCGGGUGCCAA
Construct (chain): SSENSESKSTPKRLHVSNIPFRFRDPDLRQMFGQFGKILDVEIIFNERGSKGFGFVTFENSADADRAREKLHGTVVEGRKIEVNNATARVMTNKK
Sequence	RBNS enrichment (R)
GAGCCAGCAGGCAGGCGGGAAGGGCCAAGUACAGGCAAUCACCCCCAUCUUCUUGGUUUGAAGCUUUAUCCAUGUAUCAUGUUCCGUGUAGCCAUUUUAUUUUUUAAGAA	0.426
ACAUUCCUUUCUUGUGCCCUGGGCCAAAACCAAUGCUGAUGACCUUAUCAGCUUCCUGUUUCUUCCCAUACUUGCAUACACCACUGCAAAAUGUCUUAAUGCAAAUUUUG	0.239
CUUUUUUUUAUUAGUAAAAGCAAGUCUCUUUGAAUUCUUCAUUCUAGAUUUGUACAAAUGCUUUUUUUGUCCGUCCUCGUGGGGUUUUUUUUCUCCCCCUUUUCUUUGUU	0.713
GUGGGAUCUACAGAGAAAGCCAUUCUGUGCAUCCCUGAGUAAGGAGCAAGUGAUCAGGUGUCUAUAACAUUUUUCAUUCUCUCUGGAAACAGACUCAGGUUUCUUUGGAC	0.385
GUUGAACCUUGCAGUCCUUUCUCUACGCCCGUGGAUUUUGUGGAAACACUUUGCAAUCUCUUUGUCUUUUUUUUUUUUACCAGAACUAGUUACAUUGGAAUGCUUACUGU	0.249
GUGUUUUAUAUUGAGUGCACUUCUGUUCAUUUCCAUUGCUGCUUAUAUGCAGUGUUAGCCGAAUUAGAUUUACAAGACAAUCUAAGCUUUCCGGAUAAUUUUAUAUAUCA	0.917
AGGUAUGGGGCAGUCCAGUUUAUAACUUUGCAACCAAACCCAAGCCUGCUCUUUUUGAAGCAGCUGAUUGGAGAGUAAAGAUUUUCAUUCAAUAAAGCUAAACCUCAGGG	0.32
AAGUAAUGCUAAUUAGAAAUCAGUUGGACUUCAACAUUCUCAAGUACUUCCACAAAGCAUCCCUUGGUUUUAUUCCAGUUUGUUGCUUUACGUAUUUGUAAGUAUUAAAC	0.47

Set 2 — technique: protein binding microarray; molecule type: double-stranded DNA, one strand shown; medium: in vitro; tested at: not given; baseline: not given; direction: higher = stronger binding
Target: Histone acetyltransferase KAT6A, winged helix 2, GST fusion (KAT6A, Homo sapiens, UniProt Q92794, residues 85-181)
Setting: 8-mer, flanks averaged, mean of 2 arrays, mostly near background
Target sequence (chain): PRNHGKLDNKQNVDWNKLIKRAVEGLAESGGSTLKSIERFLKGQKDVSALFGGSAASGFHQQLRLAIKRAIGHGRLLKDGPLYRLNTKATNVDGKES
Sequence	E-score
CGAGGGTA	-0.0124
CCTTGAGC	0.00211
GTTCGTAA	-0.0331
CGCCTAAA	0.0997
GGGGAAGA	0.0698
CTTGAACA	-0.00415
TCCGCGCA	0.0267
GCGGAGCC	0.169
ATGGAATA	-0.0104
AAATAGCC	-0.194
CAAGGGTA	-0.243
CTCATAGC	-0.166
ACACGGAT	-0.0286
AGGAATCC	0.0476
ACAGCGCT	-0.067
TCGGTAGA	0.0249

Set 3 — technique: RNA Bind-n-Seq; molecule type: RNA; medium: in vitro; tested at: not given; baseline: input RNA pool; direction: higher = stronger binding
Target: RING finger protein unkempt homolog, zinc fingers 1-6, GST-SBP tag (UNK, Homo sapiens, UniProt Q9C0B0, residues 30-357)
UniProt Q9C0B0, sequence (30-357, looked up): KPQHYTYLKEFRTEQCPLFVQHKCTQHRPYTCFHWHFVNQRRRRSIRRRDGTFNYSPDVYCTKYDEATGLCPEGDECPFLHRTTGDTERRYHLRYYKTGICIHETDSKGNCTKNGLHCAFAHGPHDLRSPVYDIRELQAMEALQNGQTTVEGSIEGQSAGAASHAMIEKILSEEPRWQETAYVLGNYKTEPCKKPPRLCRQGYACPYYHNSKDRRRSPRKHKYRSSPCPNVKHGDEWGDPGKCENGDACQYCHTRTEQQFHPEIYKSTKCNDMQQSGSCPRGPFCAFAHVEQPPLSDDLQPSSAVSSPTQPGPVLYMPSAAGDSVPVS
Setting: RNA with constant flanks, human-mouse chimeric sites, ends assumed
Shared flanks, not repeated: GGGAGUUCUACAGUCCGACGAUC … CAACAGAGGAUUGAGCAUCA
Sequence	bound/input enrichment [ratio]
AAAGAACCUCUCUCUGAAGAAGAGGAAGAAGACAAUGAUGAUGUUGAACCCAUUUCUGAAUUUCGAUUUGUGCCCAGUGAUAAAUCAGCAUUGGAGGCGAUGUUCACAGCAAUGUGUGAG	0.25
CCCCAAUACCAUUUGCAGGUCUGGAACUGCACUCUCUUUUUUAAAAAACAUGUAUACAUUUUAGGGCUGUAGAUUUACUUUCCUAUUUUUGUUUUUCAUUGCUGACUUUUGAGCACAGAA	1.71
AAGCAACUUAUGGAAACAACAAUUCGUUAUCUUGCAGCCUCAGUGUUCACUUGCUUGGCGAUAGCAUUGGGGUUUUAUAGGUUCUGGAAGGAGAACUGACGAUGAUGCUGCCGCUGCUGC	0.242
AACAUUUUGUCAAAUUGUUAUGUUCCUGUGAAACAAGUGAGCACUUUGAUACACUUCAUCUGCUUGUACAUCUGUAUGAUAGAGAAAUGUAAAUAUGUUAAUCCAAGCAAUGUGUCACUU	0.18
AUGGAGAAGGAUUCUCUGCCCCGCUUUGUGCGCUCUGAAUUUUAUAAGGAGCUAAUCAAGUAGUAAUCUGGUCAGGCUAUGAAAUCAUGCCCUGUGAGUUGAGUUACAUCCUUUGUAGCA	0.203
CGCGUCCUCUCGCUGCUGCGGAGCCCGAGCUGGGAACCAUUCCGGGACUGGUACCCUGCACACAGCCGCCUCUUCGAUCAAGCUUUCGGGGUGCCCCGGCUGCCGGAUGAGUGGUCGCAG	0.14
GUACUGCAGCAGCAGGGAAAACUGCAGGAAGCUCUGAUGCACUAUAAGGAGGCUAUUCGAAUCAGUCCUACCUUUGCUGAUGCCUACUCUAAUAUGGGAAACACUCUAAAGGAGAUGCAG	0.193
UAAGUUAUUUUGUACAGUAAGUUAUUUUCUUAACAUUUUUAUAUUGCCAUGUUUAUUUUGUUUGGGUGCUUUAUUAAAUUAAGUACAUAGCUAAGGUAAUGAACAUCUUUUUCAGUAAUU	1.71

Set 4 — technique: aptamer microarray, sandwich; molecule type: DNA with 2'F-ANA; medium: in vitro; tested at: 200 nM; with: Cy3 exosite-II aptamer, 400 nM; direction: higher = stronger binding; sequence: GGTTGGTGTGGTTGG
Target: Prothrombin, mature alpha-thrombin (F2, Homo sapiens, UniProt P00734)
Setting: whole 15-mer aptamer, many near background
Modification	mean fluorescence intensity
2'F-ANA at 2 3 4 8 9 10 12	321 a.u.
2'F-ANA at 2 7 8 10 11 14	85.6 a.u.
2'F-ANA at 2 5 6 7 10	61.2 a.u.
2'F-ANA at 4 6 9 10 11	75 a.u.
2'F-ANA at 3 6 10	606 a.u.
2'F-ANA at 1 3 4 6 11 12 13 14	68.4 a.u.
2'F-ANA at 1 2 3 5 6 7 9 10 11 12	50.7 a.u.
2'F-ANA at 1 3 4 8 10 13	54.5 a.u.
2'F-ANA at 1 2 4 6 7 10 11 12 13 14 15	52.1 a.u.
2'F-ANA at 1 3 5 6 9 11 12 13 14	45.4 a.u.
2'F-ANA at 1 4 5 8 11 14	45.9 a.u.
2'F-ANA at 1 2 3 6 9 10 12 13	77.7 a.u.
2'F-ANA at 3 4 9 11 15	542 a.u.
2'F-ANA at 3 5 6 9 10 12	66.8 a.u.
2'F-ANA at 1 2 3 4 9 12 13 14	60 a.u.
2'F-ANA at 2 5 6 7 10 12 13 15	46.7 a.u.
2'F-ANA at 1 2 4 6 7 8 9 12 15	279 a.u.
2'F-ANA at 1 3 4 5 7 8 9 10 11 15	90.5 a.u.
2'F-ANA at 3 4 6 7 9 11 12 13 15	443 a.u.
2'F-ANA at 1 5 8 9 13 15	46.8 a.u.
2'F-ANA at 3 5 6 7 9 15	96.9 a.u.
2'F-ANA at 1 2 4 5 7 8 9 10 11 13 14 15	48.8 a.u.
2'F-ANA at 2 5 6 8 13	68 a.u.
2'F-ANA at 1 2 4 7 8 9 10 11 13	59.6 a.u.
2'F-ANA at 2 4 5 6 7 9 10 13 15	51.5 a.u.

A few entries again (set 4):
Modification	mean fluorescence intensity
2'F-ANA at 2 4 5 6 7 9 10 13 15	51.5 a.u.
2'F-ANA at 1 2 3 4 9 12 13 14	60 a.u.
2'F-ANA at 1 2 3 5 6 7 9 10 11 12	50.7 a.u.
2'F-ANA at 3 4 6 7 9 11 12 13 15	443 a.u.
2'F-ANA at 1 2 4 7 8 9 10 11 13	59.6 a.u.
